Earlier results as cited in several papers.
Each line is one published result; not all experiments were run side by side. ± marks the error that the study gave. Square brackets hold non-standard residues; d marks the D form. Ends that are not written are not given here.
STAT3 SH2 domain: Signal transducer and activator of transcription 3, SH2 domain (STAT3, Homo sapiens, UniProt P40763)
Sequence of UniProt P40763 (whole entry, looked up): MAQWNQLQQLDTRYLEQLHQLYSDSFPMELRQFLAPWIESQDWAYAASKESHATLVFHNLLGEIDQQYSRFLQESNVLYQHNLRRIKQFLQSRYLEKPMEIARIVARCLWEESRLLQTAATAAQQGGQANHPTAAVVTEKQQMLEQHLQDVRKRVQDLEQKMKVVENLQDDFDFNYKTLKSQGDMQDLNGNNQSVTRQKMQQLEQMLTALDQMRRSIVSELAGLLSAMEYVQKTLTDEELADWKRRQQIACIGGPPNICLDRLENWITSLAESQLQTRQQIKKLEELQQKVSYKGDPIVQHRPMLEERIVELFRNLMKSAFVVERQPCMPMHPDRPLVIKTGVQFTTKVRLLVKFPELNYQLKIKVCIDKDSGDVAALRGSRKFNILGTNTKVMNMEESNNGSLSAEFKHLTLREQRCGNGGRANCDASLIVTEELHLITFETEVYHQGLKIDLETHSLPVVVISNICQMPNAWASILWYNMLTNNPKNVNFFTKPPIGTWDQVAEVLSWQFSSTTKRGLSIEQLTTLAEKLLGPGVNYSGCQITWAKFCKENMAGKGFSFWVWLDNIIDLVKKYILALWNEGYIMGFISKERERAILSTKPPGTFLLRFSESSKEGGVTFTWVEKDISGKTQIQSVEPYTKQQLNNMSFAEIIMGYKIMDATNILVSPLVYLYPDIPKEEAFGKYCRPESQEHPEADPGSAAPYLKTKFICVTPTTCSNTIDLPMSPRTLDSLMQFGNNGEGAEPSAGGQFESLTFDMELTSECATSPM
Sequence of UniProt O43603 (whole entry, looked up): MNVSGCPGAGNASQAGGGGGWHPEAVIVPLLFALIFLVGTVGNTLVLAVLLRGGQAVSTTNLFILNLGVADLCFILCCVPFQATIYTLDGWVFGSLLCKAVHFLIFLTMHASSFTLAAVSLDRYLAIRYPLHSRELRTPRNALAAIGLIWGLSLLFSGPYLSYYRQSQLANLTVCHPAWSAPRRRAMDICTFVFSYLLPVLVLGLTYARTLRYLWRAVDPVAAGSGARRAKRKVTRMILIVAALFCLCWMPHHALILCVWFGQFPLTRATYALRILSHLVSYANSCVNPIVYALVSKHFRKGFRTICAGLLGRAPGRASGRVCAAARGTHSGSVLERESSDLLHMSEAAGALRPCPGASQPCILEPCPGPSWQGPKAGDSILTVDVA
Sequence of UniProt P20789 (whole entry, looked up): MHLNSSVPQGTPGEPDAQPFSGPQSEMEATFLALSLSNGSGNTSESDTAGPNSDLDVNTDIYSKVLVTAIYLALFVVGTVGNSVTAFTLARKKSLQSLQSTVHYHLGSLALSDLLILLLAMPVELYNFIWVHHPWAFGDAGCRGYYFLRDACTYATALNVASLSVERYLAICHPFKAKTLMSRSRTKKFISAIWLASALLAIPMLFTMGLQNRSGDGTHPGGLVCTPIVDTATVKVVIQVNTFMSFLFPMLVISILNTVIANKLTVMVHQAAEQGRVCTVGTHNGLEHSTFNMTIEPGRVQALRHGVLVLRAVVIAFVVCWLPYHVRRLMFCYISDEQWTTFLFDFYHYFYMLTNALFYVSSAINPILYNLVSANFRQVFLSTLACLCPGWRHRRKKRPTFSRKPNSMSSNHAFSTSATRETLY

| Substance | target | test | test system | setting | measurement | result |
| --- | --- | --- | --- | --- | --- | --- |
| XLPS (N-p-cinnamoyl, O-carbamoyl-Ser, C-benzylamide) | STAT3 SH2 domain | inhibitor, fluorescence polarization |  |  | IC50 | 379 ± 49 nM |
| YTVKYPNL (influenza nucleoprotein 205-212; sequence looked up) | H-2 class I histocompatibility antigen, K-B alpha chain, 27 (H2-K1, Mus musculus, UniProt P01901) | binding, competitor | peptide | purified MHC class I K allele, with: radiolabelled standard peptide | IC50 | 0.55 nM |
| neurotensin | Ntsr1 (Rattus norvegicus, UniProt P20789) | agonist | CHO cells expressing Ntsr1 |  | EC50 | 3.31 nM |
| XLPT (N-p-cinnamoyl, O-carbamoyl-Thr) | STAT3 SH2 domain | inhibitor, fluorescence polarization |  |  | IC50 | 850 ± 85 nM |
| EMRISRIILDFLFLR | histidine kinase ComD (Streptococcus pneumoniae serotype 2, UniProt A0A0H2ZM50) | reporter gene, agonist | Streptococcus pneumoniae, D39 pcomX::lacZ |  | EC50 | > 1000 nM |
| FALISFLLL (sequence looked up) | H-2 class I histocompatibility antigen, D-B alpha chain, 14 (H2-D1, Mus musculus, UniProt P01899) | binding, competitor | peptide | purified MHC class I D allele, with: radiolabelled standard peptide | IC50 | 1.9 nM |
| [Sar]WTLNSAGYLLGPKKKK-NH2 (N-terminus assumed; SMILES CNCC(=O)N[C@@H](Cc1c[nH]c2ccccc12)C(=O)N[C@H](C(=O)N[C@@H](CC(C)C)C(=O)N[C@@H](CC(N)=O)C(=O)N[C@@H](CO)C(=O)N[C@@H](C)C(=O)NCC(=O)N[C@@H](Cc1ccc(O)cc1)C(=O)N[C@@H](CC(C)C)C(=O)N[C@@H](CC(C)C)C(=O)NCC(=O)N1CCC[C@H]1C(=O)N[C@@H](CCCCN)C(=O)N[C@@H](CCCCN)C(=O)N[C@@H](CCCCN)C(=O)N[C@@H](CCCCN)C(N)=O)[C@@H](C)O; N-terminal sarcosine; Sar = CNCC(=O)O) | GALR2 (Homo sapiens, UniProt O43603) |  |  | with: europium-labeled galanin | Ki | 24 ± 9.9 nM |
